Published values collected from several papers.
Each numbered part is a random draw from the data of one study; scales do not carry over between parts. Positions count from the first letter of the parent shown.

Sample 1
Target: RING finger protein unkempt homolog, zinc fingers 1-6, GST-SBP tag (UNK, Homo sapiens, UniProt Q9C0B0, residues 30-357)
Sequence of UniProt Q9C0B0 (30-357, looked up): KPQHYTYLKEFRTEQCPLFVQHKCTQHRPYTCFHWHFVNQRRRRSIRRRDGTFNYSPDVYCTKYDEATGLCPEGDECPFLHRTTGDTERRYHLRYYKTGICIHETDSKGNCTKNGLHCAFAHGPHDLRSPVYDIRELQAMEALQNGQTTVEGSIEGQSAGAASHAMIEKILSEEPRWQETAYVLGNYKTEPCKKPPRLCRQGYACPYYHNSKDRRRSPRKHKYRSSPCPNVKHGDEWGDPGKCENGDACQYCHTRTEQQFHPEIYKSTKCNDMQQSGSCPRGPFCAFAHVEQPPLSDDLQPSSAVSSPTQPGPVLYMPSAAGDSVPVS
Method: RNA Bind-n-Seq
Molecule type: RNA
Matrix: in vitro
Tested at: not given
Setting: RNA with constant flanks, human and mouse sites, ends assumed
Baseline: input RNA pool
Direction: higher = stronger binding
All sequences stand within: GGGAGUUCUACAGUCCGACGAUC … CAACAGAGGAUUGAGCAUCA
Oligonucleotide | bound/input enrichment
UAAGAGAUUAUGGCAUUUGAUACUCACCAUGUUAAAAAACGGAACUUCUCUAAUAGUAUUGAUCUUCCUAGAAAGAGGAUCUCUAACUUCACCAGUAAGAACAUGAAGGAGGUUAAGAGA | 0.444 ratio
GAUGAUGAAUCUAAAGUAUAUAGUAUGAAACUUGAUGUUGAAUUCAUAAAGACUUUUUCUAUCACACACAAGUUCUUUCAUUAACAUAGUGAAUUAUAACAGCACUGUUUCUACAUUUGC | 0.461 ratio
CACGUACAGCCCUGAAUGCAGGUGCAGUUUGGGUUUUUUGUUUUGUUUUGUUUUGUUUUAUUAGCCAGUGGGCAAAGUGAAAUGUAAUUUUGGGUAAGCCAGGGCUACUUUAGCUUUUCU | 1.2 ratio
CUGAGGGCUCCAUGCUGAAGGCUCCCAUUUUCAGUUCCCUCCUGCCCAGGACUGCAUUGUUUUCUAGCCCCGAGGUGGUGGCACGGGCCCUCCCUCCCAGCGCUCUGGGAGCCACGCCUA | 0.247 ratio
AAACUCAGAGAGACCUUGACUUUCUUUGAUGAGCUUGAAAACAUCGGCAGAUAUCAAGGAACUAGUAACUUUAGGGAGAGUUUGGCAUCCCUGGUCCAGAGCUGCAGAAAACUUCAGAGC | 0.295 ratio
UAUCAAAACAUGGACAAGACUAAGACAGAUUAUACCAGAAUAAAGAGCCUCAGCAUCAAUGUGAAUUUGGGAAACAAAGAAGUGAUGGAUACUACUAAAAGUCAAGUUAGAGAUUAUCCA | 0.209 ratio
AGAGAGAGAAAAACUAGUAAAGGCUGAAAGAAAAUUCAUUGAAGAUAGAGUUAAAAAAAUCAUAGAGCUGAAAAAGAAAGUCUGUGGUGACUCAGAUAAAGGAUUUGUCGUUAUUAAUCA | 13.5 ratio
GGAUAUUCUAAAAUUCAGAUUUACUUAACUGAUCCAGACUUUAAGGGUUUUAUACGAAUUAGCUGUUGCCAAUACUGUAAGGUAGAAUUUCAUAUGAACUGCUGGAAAAAGUUAAAAACA | 0.586 ratio
GCAGGGGUUUGUUUGUUUGCUUGCUUGUUUGUUUUUAGUUCUGCCAUAUGGAUUUCAGUAAUGGGUCCUCCCUUGACUUGCAGUUAAGCAUGAAACUUCUCAUUGGGUAGUUUCAAAACU | 0.353 ratio
UCUCCCCUCGAAAUUGUUGAAAUGUUUGCGGGACUUUCUUGUUUCCUCAAAGACUCCAGUGAUGUUUCCCAAACACUGCUGGAUGAUUUUCGGAUAUGGCAAGGAUAUAACUUUCUUUGU | 0.218 ratio
GAAACAUUUAAUGAAGAUGACUCGGACAUAGGCAGAGCUGGCCACAGUAUGCGAAAAUACUUUGAAAAAAAGUGGACAGAUACCUUCAAAGUGAGCUGAAGUUGUAAUCUCCUUUUUCUC | 0.17 ratio

Sample 2
Target: CCND1, cyclin fold, Cln2 fusion (human)
Method: yeast growth competition, sequencing
Matrix: yeast
Setting: weak parent motif
Baseline: not given
Direction: higher = stronger binding
Parent: PKMYT1 docking peptide (human); SFEPRNLLSLFED; partner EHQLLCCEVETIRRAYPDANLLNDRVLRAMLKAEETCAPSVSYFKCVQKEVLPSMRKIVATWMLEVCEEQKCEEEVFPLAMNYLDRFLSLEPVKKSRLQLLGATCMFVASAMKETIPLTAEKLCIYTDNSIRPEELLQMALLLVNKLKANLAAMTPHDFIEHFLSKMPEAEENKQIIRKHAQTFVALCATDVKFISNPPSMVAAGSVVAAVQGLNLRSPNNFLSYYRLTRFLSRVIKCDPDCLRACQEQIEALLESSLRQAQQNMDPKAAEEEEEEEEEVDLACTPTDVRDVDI
Variant | normalised enrichment score
RFEPRNLLSLFED [S1R] | -0.251
SFEPRMLLSLFED [N6M] | 0.414
SFPPRNLLSLFED [E3P] | 1.74
SFEPRLLLSLFED [N6L] | 1.42
SFEPRNLTSLFED [L8T] | 1.4
SFEPRNLMSLFED [L8M] | 1.25
SFEPRNLLSLFEG [D13G] | 1.24
TFEPRNLLSLFED [S1T] | 0.695
SFEPRYLLSLFED [N6Y] | 1.12
SFMPRNLLSLFED [E3M] | 0.875
SFEPRALLSLFED [N6A] | 1.18
SFEPRNLLSIFED [L10I] | 0.566
SFEPANLLSLFED [R5A] | 1.34
SMEPRNLLSLFED [F2M] | 0.278
SPEPRNLLSLFED [F2P] | 0.345
SFEPKNLLSLFED [R5K] | 1.31
SFEPRNLLSLFSD [E12S] | 0.617
WFEPRNLLSLFED [S1W] | 0.277
SFELRNLLSLFED [P4L] | 1.39
SFEPRNLLSLNED [F11N] | 0.777
SNEPRNLLSLFED [F2N] | 0.0385
SFEPRNTLSLFED [L7T] | 1.02
GFEPRNLLSLFED [S1G] | 0.387
SFEPRNLLSLFEI [D13I] | 1.34
SFEPRNLLSLFER [D13R] | 1.05

Sample 3
Target: Prothrombin, mature alpha-thrombin (F2, Homo sapiens, UniProt P00734)
Method: aptamer microarray, sandwich
Molecule type: DNA with 2'F-ANA
Matrix: in vitro
Tested at: 200 nM
Setting: whole 15-mer aptamer, many near background
With: Cy3 exosite-II aptamer, 400 nM
Direction: higher = stronger binding
Oligonucleotide: GGTTGGTGTGGTTGG
Modification | mean fluorescence intensity [a.u.]
2'F-ANA at 1 3 4 6 7 8 9 10 11 | 60.7
2'F-ANA at 1 2 3 4 8 10 13 15 | 52.2
2'F-ANA at 2 3 5 7 9 11 14 15 | 50.4
2'F-ANA at 4 5 7 10 11 13 14 | 44
2'F-ANA at 1 2 4 5 6 8 9 11 | 54.4
2'F-ANA at 1 3 5 7 9 10 11 12 15 | 56.3
2'F-ANA at 2 4 6 8 9 12 13 | 317
2'F-ANA at 4 5 6 7 8 11 12 15 | 175
2'F-ANA at 2 8 9 11 14 15 | 124
2'F-ANA at 2 6 7 8 10 11 12 15 | 133
2'F-ANA at 1 2 3 5 8 10 12 13 | 55.9
2'F-ANA at 1 2 6 8 9 13 14 15 | 55.4
2'F-ANA at 1 6 7 8 9 11 12 13 14 15 | 69.8
2'F-ANA at 1 3 6 9 11 12 13 15 | 313
2'F-ANA at 3 4 11 13 15 | 513
2'F-ANA at 1 6 10 11 13 14 15 | 57.4
2'F-ANA at 3 7 | 1400
2'F-ANA at 4 6 7 9 14 | 129
2'F-ANA at 1 3 4 6 9 10 12 13 | 72.9
2'F-ANA at 1 3 4 5 6 12 13 14 15 | 92.4
2'F-ANA at 2 7 8 10 11 12 13 14 | 83.7
2'F-ANA at 1 4 5 15 | 52.7
2'F-ANA at 3 6 7 9 10 12 13 14 15 | 369
2'F-ANA at 1 6 7 10 14 15 | 55.9

Sample 4
Target: Histone acetyltransferase KAT6A, winged helix 2, GST fusion (KAT6A, Homo sapiens, UniProt Q92794, residues 85-181)
Method: protein binding microarray
Molecule type: double-stranded DNA, one strand shown
Matrix: in vitro
Tested at: not given
Setting: 8-mer, flanks averaged, mean of 2 arrays, mostly near background
Baseline: not given
Direction: higher = stronger binding
Construct (chain): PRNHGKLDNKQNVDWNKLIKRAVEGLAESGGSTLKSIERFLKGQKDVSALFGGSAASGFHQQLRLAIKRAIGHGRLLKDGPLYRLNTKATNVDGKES
Oligonucleotide | E-score
TTCATAAA | 0.0876
AACCCTGT | 0.0556
AAAAGTCG | 0.0464
GTCGTAAA | -0.156
CCACCCAC | 0.0231
CACGGAAA | -0.000275
GTGAGGTA | -0.00526
ATGCTCGC | 0.0768
ACGGAACA | -0.0387
CTAGTCAA | -0.25
AAAGGCCA | -0.0804
GAGAGCTA | -0.127
ACCTGAGG | 0.04
TATACTGA | 0.189
AATTGTCA | 0.123
ACATCGGG | -0.0583
GAGTGCCC | 0.088
CACGCTTA | -0.0384
GCAGGTCA | -0.00266
CCCGAACA | -0.0622

Sample 5
Target: RNA binding protein fox-1 homolog 2, RRM domain, GST-SBP tag (RBFOX2, Homo sapiens, UniProt O43251-10, residues 100-194)
Method: RNA Bind-n-Seq
Molecule type: RNA
Matrix: in vitro
Tested at: 365 nM
Setting: natural RNA segment, single round, ends assumed
Baseline: no-protein control
Direction: higher = stronger binding
All sequences stand within: GGGAGUUCUACAGUCCGACGAUC … UGGAAUUCUCGGGUGCCAA
Target sequence (chain): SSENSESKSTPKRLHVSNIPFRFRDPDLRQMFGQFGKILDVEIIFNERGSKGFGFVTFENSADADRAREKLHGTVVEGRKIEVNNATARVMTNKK
Oligonucleotide | RBNS enrichment (R)
AAUGGUGAUAAUAAUGCCUACCUCCCGAGGUUGUUGUAAGAAUUAUAAGCACAAAUGUAUGUAAAGUGCCUGGCACAAAGUAGGUGCUCAAUAAAUGGUAGCUAUUAUAA | 2.15
AGCCUCCCCAGGACCUAGGGCGCCUGCCCUCUGCUGGCUAGGACCGGGCCCAGCCCAGCCCUUCCUGAAGCCAGAAGCGUUGCUGAGUGUGUUCCCUGUAACUGCCCCAU | 0.382
AAGGGCUAUUAAAAUAUUUUUACACCUUUGAAAAUUGCAGGCUUGGUACAAAGAGGUCUGUCAUCUUCCCCCUGGGAUAUAAGAUGAUCUAGCUCCCGGUAGAGGAUCAC | 0.474
UAAUUUUAAAACUUGAAGACUUCCAGACUUAUCCAACUUAUAAAUAACAUAUUUCUUCAGACUAACAUCUUAAAACACUGACCUCUAUGAGGUAUUUACUGUGCAAUAAC | 0.545
AAUUCCCAACAAACAUUGAUGCUGACAGUCAUGCAGUCUGGGAGUGGGGAAGUGAUCUUUUGUUCCCAUCCUCUUCUUUUAGCAGUAAAAUAGCUGAGGGAAAAGGGAGG | 0.354
GUCUGUGAUUUUGUACCUUGUGAAGGAGACAGAGGGAGGCAGAUGAAUAAACAGUUGCUCUCUGUCCCCUCCUGGGUGCCUGGCCUUCCUGGACCCAGGGAAUUCACCAG | 0.184
UCUUGCACUGACUCUGUGGAGGGGGUCUUCAUUCACUAAACUGACCCAGGAUGGAACACGAAACCACACGUGCCGUGACCUUUAGGUUUAUGAGUAGACAGUGUUAAUUU | 0.269
UAUUGUUUGAGAAUAAUGUCUUUUUAUACCAGGAAAAUAGUUAUCCUGAAUGACGUUGAAAACUCCCCCUCCCCUUUAUUUUUUUUUAAUCAAUACAUGUGAAAGUAACA | 1.3
CUGAAGGUAGGUGAGUUCAUCCUCUUCAUGGUAAUGCUGUUUUACCAAGACUUUAUAGCAGAUGGACCCAGAAAGAAUUUUCUGCUAUUGUGUUCACUACAACAGGAUAG | 0.34
CUGGUCAGACUCUGAUGUUGGGUAGCUGGCCUCUGUGGGGAUUGUAAGUGCCCUGAGGCGCUCUGUACUAGAAACUGCUCUUAAUAAUAACGGUGAUUAUUGGUUGCUGC | 0.771
CCUCAUUCUGGUUUAUUUAUUAUGAACUUCCAAGUUAUUUAAAUGAAGAUUUCCUUCUGCAGUAUUUUCUUGAGAUAACAUAUUUGCUUUCCACCAUGUCCUGGGGGCCU | 0.732
AAAAAAGAAAAGGAAAAACCCCGUGCUCGCCCCCUUCCUCCUGCCGUCCACUGCGCGGCCUCGUCAGUCCCGGGGCUGACUGUCCCUCUCAGCUCUGCGCCUGCCAGGCA | 0.741
